Measurements gathered from unrelated publications.
Each line is one published result; not all experiments were run side by side. ± gives the spread as reported.
DCPS: m7GpppX diphosphatase (DCPS, Homo sapiens, UniProt Q96C86)
ALB: Albumin (ALB, Bos taurus, UniProt P02769)

SMILES | target | assay | test system | conditions | scale | measurement | result
CCCCCCCCCCCCCCCC(=O)N[C@H](C(=O)N[C@H](C(=O)N[C@H](C(=O)N[C@@H](C)C(=O)N[C@@H](C)C(=O)N[C@@H](C)C(=O)N[C@@H](CCC(=O)O)C(=O)N[C@@H](CCC(=O)O)C(=O)N[C@@H](CCC(=O)O)C(N)=O)C(C)C)C(C)C)C(C)C | Platelet-derived growth factor subunit B, homodimer (Homo sapiens, UniProt P01127) | binding, biolayer interferometry |  |  |  | koff | 0.000498 s⁻¹
CC(=O)N[C@@H](CC(N)=O)C(=O)N[C@@H](CCCNC(=N)N)C(=O)N[C@@H](CCCNC(=N)N)C(=O)N[C@@H](CC(N)=O)C(=O)N[C@H](C(=O)N[C@@H](C)C(=O)N[C@@H](CC(N)=O)C(=O)N[C@@H](CCN1C(=O)c2ccc(N(C)C)cc2C1=O)C(=O)N[C@@H](CCCNC(=N)N)C(=O)N[C@H](C(=O)N[C@@H](CCCNC(=N)N)C(=O)N1CCC[C@H]1C(=O)N[C@@H](CCCNC(=N)N)C(=O)O)[C@@H](C)O)[C@@H](C)O | Disks large homolog 4, PDZ3 domain (Homo sapiens, UniProt P78352) | PDZ domain binding, fluorescence emission intensity | PSD-95 PDZ3 domain | 4-DMAP-Dab at position -5 | reference: probe without PDZ domain | relative fluorescence increase | 1.4
Nc1ncnc2c1ncn2[C@@H]1O[C@H](CO)[C@@H](O[C@H]2O[C@H](CO)[C@@H](OP(=O)(O)O)[C@H](OP(=O)(O)O)[C@H]2O)[C@H]1O | Inositol 1,4,5-trisphosphate-gated calcium channel ITPR1, IP3-binding core (Itpr1, Rattus norvegicus, UniProt P29994, R568Q) | binding, 3H-IP3 competition |  | IP3-binding core IBC^R568Q |  | Hill coefficient | 1.1 ± 0.3
C[n+]1cn(C2OC(COP(=O)(O)OP(=O)([O-])C(Cl)(Cl)P(=O)(O)O)C(O)C2O)c2nc(N)nc(O)c21 (centres unmarked) | DCPS | substrate, HPLC |  | 0.04 mM, 60 min, 37 °C |  | hydrolysis | 1.1 ± 0.3%
CCCCCCCCCCCC(=O)Nc1ccccc1SSc1ccccc1NC(=O)CCCCCCCCCCC | ALB | binding, fluorescence quenching |  | 313 K |  | Gibbs free energy change | -19.4 kJ/mol
COC(=O)c1cnc(-c2cnccn2)cc1C(=O)OC.COC(=O)c1cnc(-c2cnccn2)cc1C(=O)OC.[Cl-].[Cl-].[Cl-].[Cl-].[Cu+2].[Cu+2] | ALB | fluorescence quenching |  |  |  | quenching rate constant | 8.74e+13 M⁻¹ s⁻¹
BP(=O)(OP(=O)([O-])OC[C@H]1O[C@@H](n2c[n+](C)c3c(O)nc(N)nc32)[C@H](O)[C@@H]1O)OP(=O)(O)OC[C@H]1O[C@@H](n2cnc3c(=O)[nH]c(N)nc32)[C@H](O)[C@@H]1O (some centres unmarked) | DCPS | binding, fluorescence quenching titration |  | pH 7.6, 20.0 °C |  | association constant | 40.7 ± 2.6 µM⁻¹
COc1cc(C(=O)NC2CCC(N3CCN(CC4CCC5(CCCC5)C4)CC3)CC2)c(F)cc1Nc1ncc2c(n1)N(C1CCCC1(F)F)CC(F)(F)C(=O)N2C (centres unmarked) | Cyclin-dependent kinase 5 (CDK5, Homo sapiens, UniProt Q00535) | cell-free assay, TR-FRET |  | 10 µM |  | inhibition | 0.68%
[3H]C([3H])([3H])c1cnccc1CN1C[C@@H](c2cc(F)c(F)c(F)c2)CC1=O | Synaptic vesicle glycoprotein 2A (SV2A, Homo sapiens, UniProt Q7L0J3) | radioligand binding, autoradiography | human, post-mortem hippocampus | 5 nM |  | total binding | 408 fmol/mg
C=C1C(=O)O[C@@H]2[C@H]3C(CO)=CC(=O)C3=C(C)C[C@H](OC(=O)Cc3ccc(O)cc3)[C@@H]12 | Alpha-glucosidase MAL12 (MAL12, Saccharomyces cerevisiae S288c, UniProt P53341) | enzyme activity, inhibitor |  | 26.09 µM |  | Vmax | 0.022 mM/min
CCC(CC)O[C@@H]1C=C(C(=O)OC(OC(=O)[C@@H](N)C(C)C)C(C)C)C[C@H](NC(=N)N)[C@H]1NC(C)=O (single isomer, unassigned) | Solute carrier family 15 member 1 (SLC15A1, Homo sapiens, UniProt P46059) | transporter uptake, substrate | Xenopus laevis oocytes expressing SLC15A1 | pH 6.0, room temperature, added: Gly-Sar 1 and 20 mM |  | uptake | decreased
O=c1cc(-c2ccc(O)c(O)c2)oc2cc(O[C@@H]3O[C@H](CO)[C@@H](O)[C@H](O)[C@H]3O)cc(O)c12 | Dopamine beta-hydroxylase (Homo sapiens, UniProt P09172) | inhibitor |  | added: tyramine |  | inhibitory concentration | < 0.9 µM
CSCC[C@H](NC(=O)[C@H](CC(C)C)NC(=O)[C@H](CCCCN(C)C)NC(=O)[C@H](CCCCNC(C)=O)NC(=O)[C@H](Cc1c[nH]cn1)NC(=O)[C@H](CCCNC(=N)N)NC(=O)[C@H](CO)NC(=O)[C@@H](N)[C@@H](C)O)C(=O)N[C@@H](Cc1ccccc1)C(=O)N[C@@H](CCCCN)C(=O)O | human 53BP1 tandem Tudor domain Y1502A | tryptophan fluorescence |  | concentration not given | reference: wild type over mutant | binding reduction | ~14 fold
Cc1cc(=O)oc2cc(NC(=O)CCCCCCC(=O)NO)ccc12 | Histone deacetylase 8 (HDAC8, Homo sapiens, UniProt Q9BY41) | ITC | Tris-HCl buffer | concentration not given, pH 7.5, 25 °C |  | binding stoichiometry | 0.8 ± 0.2
CNc1ccccc1C(=O)O[C@H]1C[C@H](n2cnc3c(N)ncnc32)O[C@@H]1COP(=O)(O)OP(=O)(O)O | Unconventional myosin-Va (Gallus gallus, UniProt Q02440, D297C/G292C/I296C/S293C/V295G) | FRET | compound complex | 25 °C, added: 4 mM EDTA |  | donor-acceptor distance | 24.9 Å
Cc1cc(-c2ccc(/N=N/c3ccc4c(S(=O)(=O)O)cc(S(=O)(=O)O)c(N)c4c3O)c(C)c2)ccc1/N=N/c1ccc2c(S(=O)(=O)O)cc(S(=O)(=O)O)c(N)c2c1O | Coagulation factor X (F10, Homo sapiens, UniProt P00742) | enzyme activity, inhibitor, FXa chromogenic substrate hydrolysis |  | pH 7.4, 25–37 °C |  | Hill slope | 1.9 ± 0.2
CC(=O)[O-].O.[Cu+2].[O-]c1ccc(Br)cc1C=NCCN1CCOCC1 | ALB | UV absorption titration |  | concentration not given, pH 7.2, 25 °C |  | hyperchromism | 74.1%

For quick reference, copied from above:
SMILES | target | assay | test system | conditions | scale | measurement | result
CCCCCCCCCCCC(=O)Nc1ccccc1SSc1ccccc1NC(=O)CCCCCCCCCCC | ALB | binding, fluorescence quenching |  | 313 K |  | Gibbs free energy change | -19.4 kJ/mol
